# Published values collected from several papers.
# Each numbered part is a random draw from the data of one study; scales do not carry over between parts. Changes are numbered by the printed parent chain.

# Study 1 — technique: RNA Bind-n-Seq; form: RNA; matrix: in vitro; concentration: 20 nM; notes: 6-mer, flanks averaged, single round; added: 150 mM KCl; reference: input library; reading: higher = stronger binding
# Target: TAR DNA-binding protein 43, full length, His tag (TARDBP, Homo sapiens, UniProt Q13148, residues 1-414)
Strand,6-mer enrichment (R)
CAGAGC,0.881
AUCUGG,0.86
GCUCCC,0.697
CGGUUC,0.689
CUCGGC,0.797
UACGAG,0.963
GAGAUG,1.46
CCUCAU,0.584
UUGGUC,0.68
GUAAAA,0.745
UCUGGG,1.81
UUACAC,0.603
CUUAUA,0.592
UACGGC,0.84
UAAAAC,0.624
GUGCGG,3.47
CGUCGA,0.826
GCUGGC,1.38
CCUGAU,0.606
AUGUGG,1.66
CGUGGG,3.5
CACGUC,0.64
CCUAGC,0.653
GGCAGA,1.83

# Study 2 — technique: DHFR PCA, deep sequencing; matrix: yeast; added: (+)-ABA 2500 µM; reference: wild-type fitted maximum; reading: higher = stronger binding
# Target: ABI1, truncated, D143A, DHFR fusion (Arabidopsis thaliana)
# Notes: methotrexate growth selection, single substitutions
# Starting sequence: PYL1, truncated, DHFR fusion (Arabidopsis thaliana); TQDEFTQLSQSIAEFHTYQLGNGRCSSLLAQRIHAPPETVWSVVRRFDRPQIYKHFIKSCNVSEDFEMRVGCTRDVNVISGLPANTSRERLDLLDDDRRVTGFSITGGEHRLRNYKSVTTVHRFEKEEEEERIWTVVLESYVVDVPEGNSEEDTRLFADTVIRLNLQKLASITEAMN; partner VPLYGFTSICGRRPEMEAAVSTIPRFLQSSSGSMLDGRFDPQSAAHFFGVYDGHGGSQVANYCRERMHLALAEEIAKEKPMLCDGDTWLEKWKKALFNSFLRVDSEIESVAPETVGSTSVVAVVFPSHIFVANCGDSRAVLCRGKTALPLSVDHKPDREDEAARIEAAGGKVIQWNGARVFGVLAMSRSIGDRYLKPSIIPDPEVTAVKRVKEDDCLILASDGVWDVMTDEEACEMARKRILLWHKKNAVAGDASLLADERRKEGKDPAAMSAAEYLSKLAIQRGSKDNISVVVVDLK
Variant,relative binding score [%]
L8K,102
W41S,-5.08
T1E,96.8
V62C,98.5
R155Y,70.8
T17D,100
T135M,-0.271
E38I,88.6
L29M,91.9
G148D,91.1
L93E,103
F124V,108
T1C,97
N177Q,82.7
L169Y,11.5
L94R,85

# Study 3 — technique: RNA Bind-n-Seq; form: RNA; matrix: in vitro; concentration: not given; reference: input RNA pool; reading: higher = stronger binding
# Target: RING finger protein unkempt homolog, zinc fingers 1-6, GST-SBP tag (UNK, Homo sapiens, UniProt Q9C0B0, residues 30-357)
# Notes: RNA with constant flanks, human and mouse sites, ends assumed
# All sequences stand within: GGGAGUUCUACAGUCCGACGAUC … CAACAGAGGAUUGAGCAUCA
# Construct (chain): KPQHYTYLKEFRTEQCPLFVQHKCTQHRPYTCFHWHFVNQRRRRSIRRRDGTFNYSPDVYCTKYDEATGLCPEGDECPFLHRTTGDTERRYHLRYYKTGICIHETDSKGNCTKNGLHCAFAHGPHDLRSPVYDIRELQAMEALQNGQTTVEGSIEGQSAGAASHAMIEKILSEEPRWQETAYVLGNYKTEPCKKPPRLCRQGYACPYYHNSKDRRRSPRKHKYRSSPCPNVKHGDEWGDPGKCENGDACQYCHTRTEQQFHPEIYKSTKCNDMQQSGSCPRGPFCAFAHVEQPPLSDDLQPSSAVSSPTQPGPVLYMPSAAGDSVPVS
Strand,bound/input enrichment [ratio]
UCCAGUCCAAGGGAAGAGGAGAUCCCGCCCCUCUUUUGGGGUCUGGAUCCUGUGUUUCUAGCCUUUGCAAAACUCUACAUCAAGGAUAUCCUGGAGAUGAAGGAGUCCCAACAAGUGCCA,0.0815
CUCAGAAGAGCCAAAUCGAAAAAUGGGGGGAGAUCCUUGAGAGAAAGGCUAGAAAAAAUCGGUUUGAAUUUACCCGCGGGCAGGCGCAAAGCAGCAAAUGUCACGUUACUCACCUCACUG,0.144
UAAGUAUGAAAUGGUGUAUGCCAGUACACAUUCCUCUUCCAGUUCUCCUAAGUGCUGACCACUAGGUCAGUCUGGGACACAUCAGUGUAUGGCUAGGCUGGCUAGCUUUAGCACAGUGGA,0.16
GUUAAUUUUACCUUACUUUCAUUGUAAAUAAGCCUGUCUUCCUAUCUGGAUUUUUUGUGUGCAUACAUAUUCUACUGAUUAACUACUUUUGCAGUUUUAAUCCUGUAUUAUUUCUUCUAC,0.252
AAUGAGAAGAAACUUCAAGAGGUUGAUAGUUUGUGGAAAGAAUUUGAAACUCCAGAGAAAGCAAAUAAAAUAGUAAAGCUAAAACAUUUUGAGAAAUUUCAGGAUACAGCAGAAGCAUUA,0.526
UUGUGUGUGUGGUGAUGGAUGUGCAAGACUCAACACAUGUGAGCUGUAAACUCUACAAGGGGCUGUCAGAUGCACUAAUCUGUACAGACGACUUCAUUGCCAAAGUUGUUCAAAGAUGUA,0.2
UUACCGGCUGAAGAAGGAAAAACCUUGCUGGAACUUGUGAUUGAGCAGUUUGAAGACUUGCUAGUUAGGAUUUUAUUACUGGCAGCAUGUAUAUCUUUUGUUUUGGCUUGGUUUGAAGAA,0.845
CAACUGUCAUUACCCCUUAACUUCCUGGGAACUGUAUAUAGAGAGACAAGACAAGCACUCAUAGAUAUGAACACCUUGUUUACUCUGCUCAAGGUAGACACACGGAUUAAAGACAAAGUG,0.408
AUGAUGUGUAUUGCUGGGAUUGGACUCGUUGUGUUAUUCUUCAGUUGGAUGCUCUCUAUCUUUCGAUCAAAAUACCAUGGCUAUCCAUACAGCUUUCUGAUGAGUUAAAGAGGAUUCCAG,0.087
GGGAGCUAUGAUCCACAAAAACAACUUAUUAUUGAAGAUCCCUAUUAUGGGAAUGACUCUGACUUUGAGACGGUGUACCAGCAGUGUGUCAGGUGCUGCAGAGCGUUCUUGGAGAAGGCC,0.264
AGUCAGAAGAAGAAAGCUUUAGCAGCAGCCCUUGCCACAGCUCAAGAGUAUUCAGAAAUAAGUAUGGAGCAAAAAAAAUUACAGGAAGCUUUAUCAAAAGCAGCUGGAAAAAAGAAUAAA,0.401

# Study 4 — target: CCNB2, cyclin fold, Cln2 fusion (human); technique: yeast growth competition, sequencing; matrix: yeast; notes: strong parent motif; reference: not given; reading: higher = stronger binding
# Starting sequence: BRCA2 docking peptide (human); PSIKRNLLNEFDR
Variant,normalised enrichment score
PSIKRNLCNEFDR [L8C],2.36
PSIKKNLLNEFDR [R5K],3.36
PSIKRNLLNEFDQ [R13Q],3.78
PSIKRNLLIEFDR [N9I],3.96
PSIKRNLFNEFDR [L8F],3.83
PSIKRNLLNRFDR [E10R],0.509
PSPKRNLLNEFDR [I3P],1.7
PSINRNLLNEFDR [K4N],2.26
PSIKRNLYNEFDR [L8Y],3.22
PSIKRILLNEFDR [N6I],0.807
PSIKRNLLNEFER [D12E],4.5
PSIKRNLLNEPDR [F11P],-0.0926
PSIKRMLLNEFDR [N6M],0.511
PSIKRNLLNEFIR [D12I],2.09
PSIKRRLLNEFDR [N6R],1.4
PSIKRNLLTEFDR [N9T],3.51
PSIKRNLLNEFAR [D12A],3.25
PSIKDNLLNEFDR [R5D],0.126
PSIKTNLLNEFDR [R5T],0.864
PSIKRNLLNEFDE [R13E],4.16
PSIKRNLLNSFDR [E10S],1.27
PSIKRNLINEFDR [L8I],3.54

# Study 5 — technique: protein-binding microarray; form: double-stranded DNA, one strand shown; matrix: in vitro; concentration: 2200 nM top; notes: 60-bp whole probe; added: salmon DNA 0.4 mg/ml; reference: random background probes; reading: higher = stronger binding; all sequences stand within: GCCTAGCAC … GTCTTGATTCGCTTGACGCTGCTG
# Target: Interferon regulatory factor 7, full length, phosphomimetic (IRF7, Homo sapiens, UniProt Q92985, residues 1-503, S471D/S472D/S475D/S476D/S477D/S483D/S484D/S487D)
# Target sequence (chain): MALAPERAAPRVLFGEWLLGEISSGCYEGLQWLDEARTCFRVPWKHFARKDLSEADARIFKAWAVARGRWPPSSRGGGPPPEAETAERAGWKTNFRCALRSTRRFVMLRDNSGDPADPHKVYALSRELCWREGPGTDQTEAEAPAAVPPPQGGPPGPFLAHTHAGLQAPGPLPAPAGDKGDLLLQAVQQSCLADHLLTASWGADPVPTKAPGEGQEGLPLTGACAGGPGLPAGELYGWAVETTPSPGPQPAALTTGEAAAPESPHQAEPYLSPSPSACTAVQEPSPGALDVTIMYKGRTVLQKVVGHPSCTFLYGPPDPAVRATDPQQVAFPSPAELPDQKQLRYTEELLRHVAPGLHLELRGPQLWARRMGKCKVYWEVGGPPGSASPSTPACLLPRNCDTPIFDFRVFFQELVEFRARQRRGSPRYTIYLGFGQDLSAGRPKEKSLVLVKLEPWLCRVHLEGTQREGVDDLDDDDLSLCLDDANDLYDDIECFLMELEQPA
Strand,fitted relative affinity
CCCGTTCACCCACGACCCTTGTGCTAG,2.33 z-score
GACGATATCGGGATTGGAGACGTGCTA,-0.0652 z-score
ATGTTTTTCATTTTTTTTCAGTGCTAG,2.6 z-score
AGACAGAAGGGAAACAGGTTGGTGCTA,-0.756 z-score
TTAGGTTCCCTTTTCCTTCAGTGCTAG,3.01 z-score
GACTGTTTCGGGACTGGGGACGTGCTA,2.47 z-score
TTAGAACTCAGACTGGATTAGTGCTAG,-0.452 z-score
TTATGTTTCCTTCTCCTTTAGTGCTAG,3.38 z-score
ACTCAGCTCCTCTTCCAGGCGTGCTAG,0.825 z-score
GTCGATATCAGTATCGAGACGTGCTAG,0.533 z-score
GTCGATCTCAGTCTCGAGACGTGCTAG,0.821 z-score
GACGGTACCGGGTTTCGGGACGTGCTA,0.875 z-score
GACGATTTCAGTCTCGAGCCGTGCTAG,0.65 z-score
GACGAACTGGGATATCGAGACGTGCTA,-0.21 z-score
TCAAATCTCTTTCCTTAACTGTGCTAG,1.2 z-score
TTAGGACCGCTTATCCTTTAGTGCTAG,0.265 z-score
TACGGTTTCGACACTGGGGACGTGCTA,3.13 z-score
TTAGATTTCAGTTCCGTTTAGTGCTAG,2.86 z-score
TTAGATTTCAGTCTCGATAAGTGCTAG,0.459 z-score
TCAATTCGTCATTTCACACTGTGCTAG,1.82 z-score
TTAGATATCAGTCTAGATTAGTGCTAG,-0.238 z-score
GACGGTCTCGGTATTGGGACGTGCTAG,0.27 z-score
ATGCATGTAAATAATCAGACAGTGCTA,-0.409 z-score
GACGATTTCGGGACGGGAGACGTGCTA,1.7 z-score
TTAGGTTTCGCCTATCGGTTAGTGCTA,3.6 z-score

# Mixed results
Substance,target,assay,system,setting,how to read,quantity,value
"PhoQ, residues 284 288 289 292 302 303 ASSHFY","PhoP, residues 12 14 15 18 19 LHATL (Escherichia coli, UniProt P23836)","Sort-seq, refers to: YFP reporter",E. coli,"PhoQ-PhoP variant library, added: 10 µM Mg2+","reference: high Mg2+ state, higher = stronger signaling",fold induction,12.7
